# Measured values from different studies.
# Lines come from different studies, so protocols differ. ± marks the error that the study gave.
# Organism: Pseudomonas aeruginosa
Structure (SMILES),test,test system,conditions,how to read,measurement,value
Nc1nc2ccc(Oc3cc[nH]c(=O)c3)cc2s1,absorbance,PA14-lux,"200 µM, 18 h",relative to: DMSO,pyocyanin inhibition,21.4%
CC(C)[C@H]1NC(=O)[C@H](Cc2ccccc2)NC(=O)[C@@H](C(C)C)NC(=O)[C@@H](C)NC(=O)[C@H](CO)NC(=O)[C@@H](Cc2c(-c3ccc(-c4ccc5ccccc5c4)cc3)[nH]c3ccccc23)NC(=O)[C@@H](CO)NC1=O,broth dilution,,,,MIC90,> 50 µM
CC(C)C[C@H](NC(=O)[C@H](CCN)NC(=O)[C@H](CCN)NC(=O)[C@@H](Cc1ccccc1)NC(=O)[C@H](CC(C)C)NC(=O)[C@H](CCN)NC(=O)[C@H](CCN)NC(=O)[C@@H](CCN)NC(=O)CCSCCOC(=O)C(C)(C)C)C(N)=O,,PAO1,"24 h, 37 °C",,MBC,> 128 µM
CN[C@H](CC(C)C)C(=O)N[C@H]1C(=O)N[C@@H](CC(N)=O)C(=O)N[C@H]2C(=O)N[C@H]3C(=O)N[C@H](C(=O)N[C@H](C(=O)NCc4cn(CCCCC(=O)N[C@H](C(=O)N[C@@H](CCN)C(=O)N[C@H]5CCNC(=O)[C@H]([C@@H](C)O)NC(=O)[C@H](CCN)NC(=O)[C@H](CCN)NC(=O)[C@H](CC(C)C)NC(=O)[C@@H](CC(C)C)NC(=O)[C@H](CCN)NC5=O)[C@@H](C)O)nn4)c4cc(O)cc(O)c4-c4cc3ccc4O)[C@H](O)c3ccc(c(Cl)c3)Oc3cc2cc(c3O[C@@H]2O[C@H](CO)[C@@H](O)[C@H](O)[C@H]2O[C@H]2C[C@](C)(N)[C@H](O)[C@H](C)O2)Oc2ccc(cc2Cl)[C@H]1O,broth microdilution,"ATCC 17978, cation-adjusted Mueller-Hinton broth",,,MIC,25 µM
CC(C)[C@H]1NC(=O)[C@H](Cc2ccccc2)NC(=O)[C@@H](C(C)C)NC(=O)[C@@H](C)NC(=O)[C@H](CO)NC(=O)[C@@H](Cc2c(-c3ccc(-c4ccc5ccccc5c4)cc3)[nH]c3ccccc23)NC(=O)[C@@H](C)NC1=O,broth dilution,,,,MIC90,> 50 µM
Nc1nc2ccc(S(=O)(=O)c3cn[nH]c3)cc2s1,swarming area,PA14-lux,"200 µM, 24 h",relative to: DMSO,swarming inhibition,25.7%
O=C(O)CN(CC(=O)O)CP(=O)(O)O,,IMP-7 producer,"32 µg/mL, added: meropenem",relative to: meropenem alone,fold MIC reduction,4
C#CCNC(=O)[C@H]1NC(=O)[C@H]2NC(=O)[C@H](NC(=O)[C@@H]3NC(=O)[C@H](CC(N)=O)NC(=O)[C@H](NC(=O)[C@@H](CC(C)C)NC)[C@H](O)c4ccc(c(Cl)c4)Oc4cc3cc(c4O[C@@H]3O[C@H](CO)[C@@H](O)[C@H](O)[C@H]3O[C@H]3C[C@](C)(N)[C@H](O)[C@H](C)O3)Oc3ccc(cc3Cl)[C@H]2O)c2ccc(O)c(c2)-c2c(O)cc(O)cc21,broth microdilution,"ATCC 17978, cation-adjusted Mueller-Hinton broth",,,MIC,86 µM
C[C@@H](N)[C@H](O)CCCCCCCC(=O)CCCCCCCCCCCCCC[C@@H](O[C@@H]1O[C@H](CO)[C@H](O)[C@H](O)[C@H]1O)[C@H](N)CO,"microbial growth, resazurin",ATCC27853,50 µM,,inhibition,98%
CC(C)[C@H]1NC(=O)[C@H](Cc2ccccc2)NC(=O)[C@@H](C(C)C)NC(=O)[C@@H](C)NC(=O)[C@H](CO)NC(=O)[C@@H](Cc2c(-c3ccc(-c4ccccc4)cc3)[nH]c3ccccc23)NC(=O)[C@@H](CO)NC1=O,broth dilution,,,,MIC90,> 50 µM
NCc1ccc(S(=O)(=O)c2ccc3nc(N)sc3c2)cn1,swarming area,PA14-lux,"200 µM, 24 h",relative to: DMSO,swarming inhibition,91.5%
CC(C)C[C@H](NC(=O)[C@H](CC(C)C)NC(=O)[C@H](CCCCN)NC(=O)[C@H](Cc1ccccc1)NC(=O)[C@@H](NC(=O)[C@H](CCCNC(=N)N)NC(=O)[C@@H](N)CCCCN)C(C)C)C(=O)N[C@@H](CCCCN)C(=O)N[C@@H](CCCNC(=N)N)C(=O)N[C@@H](Cc1ccc(O)cc1)C(=O)N[C@@H](Cc1c[nH]c2ccccc12)C(=O)N[C@@H](CCCNC(=N)N)C(=O)N[C@@H](CCC(N)=O)C(=O)N[C@@H](CC(C)C)C(=O)N[C@@H](CCCCN)C(=O)N[C@@H](CCCCN)C(=O)N1CCC[C@H]1C(=O)N[C@H](C(=O)N[C@@H](CCCNC(=N)N)C(=O)NCCOCCOCC(=O)O)C(C)C,Congo red staining,ATCC 10145,"4 h, 37 °C",,minimum concentration for visible aggregation,≥ 20 µM
CCCC(=O)C#Cc1ccc(F)c(F)c1,,,"10 µM, 24 h",relative to: untreated,rhamnolipid production,45%
CC(C)[C@H]1NC(=O)[C@H](Cc2ccccc2)NC(=O)[C@@H](C(C)C)NC(=O)[C@@H](C)NC(=O)[C@H](CO)NC(=O)[C@@H](Cc2c(-c3ccc(-c4cccc5ccccc45)cc3)[nH]c3ccccc23)NC(=O)[C@@H](CO)NC1=O,broth dilution,,,,MIC90,> 50 µM
CCC(C)CCC(=O)N[C@H](CCN)C(=O)N[C@@H](CCN)C(=O)N[C@@H](CCN)C(=O)N[C@@H](CC(C)C)C(=O)N[C@H](Cc1ccccc1)C(=O)N[C@@H](CCN)C(=O)N[C@@H](CCN)C(=O)N[C@@H](CC(C)C)C(N)=O (stereo partly shown),,PAO1,"24 h, 37 °C",,MBC,> 128 µM
C#CCOc1ccc(CN[C@@]2(C)C[C@H](O[C@H]3[C@H](Oc4c5cc6cc4Oc4ccc(cc4Cl)[C@@H](O)[C@@H](NC(=O)[C@@H](CC(C)C)NC)C(=O)N[C@@H](CC(N)=O)C(=O)N[C@H]6C(=O)N[C@H]4C(=O)N[C@H](C(=O)N[C@H](C(=O)N[C@@H](CCCNC(=N)N)C(N)=O)c6cc(O)cc(O)c6-c6cc4ccc6O)[C@H](O)c4ccc(c(Cl)c4)O5)O[C@H](CO)[C@@H](O)[C@@H]3O)O[C@@H](C)[C@H]2O)cc1OC,broth microdilution,"ATCC 13883, cation-adjusted Mueller-Hinton broth",,,MIC,72 µM
Cc1nc2ccc(N)cc2s1,"swarming area, modified FAB agar",PA14-lux,"200 µM, 24 h",relative to: DMSO vehicle,inhibition,11.9%
CC[C@H](C)[C@H](NC(=O)[C@H](CCCNC(=N)N)NC(=O)[C@H](CO)NC(=O)[C@H](Cc1ccc(O)cc1)NC(=O)[C@@H](NC(=O)[C@@H](NC(=O)[C@H](C)NC(=O)CNC(=O)[C@H](CCCCN)NC(=O)[C@H](CCCCN)NC(=O)CCNC(=O)CCCCCNC(=O)[C@H](CCCNC(=N)N)NC(=O)CCCCCNC(=O)[C@H](CCCNC(=N)N)NC(=O)[C@H](CCCNC(=N)N)NC(=O)CCCCCNC(=O)[C@H](CCCNC(=N)N)NC(=O)[C@H](CCCNC(=N)N)NC(=O)CCCCCNC(=O)[C@H](CCCNC(=N)N)NC(=O)[C@H](CCCNC(=N)N)NC(=O)CCCCCNC(=O)[C@@H](N)CCCNC(=N)N)C(C)C)[C@@H](C)O)C(=O)N[C@@H](CO)C(=O)NCC(=O)N[C@@H](CCC(N)=O)C(=O)N[C@@H](Cc1ccc(O)cc1)C(=O)N[C@@H](CCCCN)C(=O)O,"biofilm formation, crystal violet",ATCC 27853,below 48 µM,,inhibition,< 50%
CC[C@H](C)[C@H](NC(=O)[C@H](CCCCN)NC(=O)[C@H](CCCNC(=N)N)NC(=O)CNC(=O)[C@@H](NC(=O)CN)C(C)C)C(=O)NCC(=O)N[C@@H](Cc1ccccc1)C(=O)N[C@@H](CCCCN)C(=O)N[C@@H](CCCCN)C(=O)N[C@H](C(=O)N[C@@H](CC(C)C)C(=O)N[C@@H](Cc1ccccc1)C(=O)N[C@@H](Cc1ccccc1)C(=O)N[C@@H](Cc1ccccc1)C(=O)N[C@@H](CCCCN)C(=O)N[C@@H](CCCCN)C(=O)NCC(=O)N[C@@H](Cc1ccc(O)cc1)C(=O)N[C@@H](CCC(=O)O)C(=O)N[C@@H](CCCCN)C(=O)N[C@@H](C)C(=O)N[C@@H](CC(N)=O)C(=O)NCC(=O)NCC(=O)N[C@@H](Cc1ccccc1)C(=O)N[C@H](C(=O)N[C@@H](CCCCN)C(=O)N[C@@H](CCCCN)C(=O)N[C@@H](CCCCN)C(=O)NCC(=O)O)C(C)C)C(C)C,"broth microdilution, agar subculture","ATCC 9721, CaMHB",,,MBC,> 1020 µM
Nc1nc2ccc(S(=O)(=O)c3cccnc3)cc2s1,"swarming area, modified FAB agar",PA14-lux,"200 µM, 24 h",relative to: DMSO vehicle,inhibition,-27.5%
CN[C@H](CC(C)C)C(=O)N[C@H]1C(=O)N[C@@H](CC(N)=O)C(=O)N[C@H]2C(=O)N[C@H]3C(=O)N[C@H](C(=O)N[C@H](C(=O)O)c4cc(O)cc(O)c4-c4cc3ccc4O)[C@H](O)c3ccc(c(Cl)c3)Oc3cc2cc(c3O[C@@H]2O[C@H](CO)[C@@H](O)[C@H](O)[C@H]2O[C@H]2C[C@](C)(NCc3ccc(OCc4cn(CCCCC(=O)N[C@H](C(=O)N[C@@H](CCN)C(=O)N[C@H]5CCNC(=O)[C@H]([C@@H](C)O)NC(=O)[C@H](CCN)NC(=O)[C@H](CCN)NC(=O)[C@H](CC(C)C)NC(=O)[C@@H](CC(C)C)NC(=O)[C@H](CCN)NC5=O)[C@@H](C)O)nn4)c(OC)c3)[C@H](O)[C@H](C)O2)Oc2ccc(cc2Cl)[C@H]1O,broth microdilution,"ATCC 17978, cation-adjusted Mueller-Hinton broth",,,MIC,12 µM
Nc1nc2ccc(Oc3ccncc3)cc2s1,swarming area,PA14-lux,"200 µM, 24 h",relative to: DMSO,swarming inhibition,39.6%
O=c1n(CCNCCOS(=O)(=O)c2ccccc2)c(=O)n(S(=O)(=O)c2ccccc2)c(=O)n1S(=O)(=O)c1ccccc1,broth microdilution,,,,MLC,4 ± 1 µg/mL
Nc1nc2ccc(S(=O)(=O)c3cn[nH]c3N)cc2s1,swarming area,PA14-lux,"200 µM, 24 h",relative to: DMSO,swarming inhibition,86.8%
CCCCCCCCCC(=O)OCCSC[C@H](N)C(=O)N[C@H](CCN)C(=O)N[C@@H](CCN)C(=O)N[C@@H](CCN)C(=O)N[C@@H](CC(C)C)C(=O)N[C@H](Cc1ccccc1)C(=O)N[C@@H](CCN)C(=O)N[C@@H](CCN)C(=O)N[C@@H](CC(C)C)C(N)=O,,PAO1,"24 h, 37 °C",,MBC,32 µM

# Some of these lines once more:
Structure (SMILES),test,test system,conditions,how to read,measurement,value
CC[C@H](C)[C@H](NC(=O)[C@H](CCCCN)NC(=O)[C@H](CCCNC(=N)N)NC(=O)CNC(=O)[C@@H](NC(=O)CN)C(C)C)C(=O)NCC(=O)N[C@@H](Cc1ccccc1)C(=O)N[C@@H](CCCCN)C(=O)N[C@@H](CCCCN)C(=O)N[C@H](C(=O)N[C@@H](CC(C)C)C(=O)N[C@@H](Cc1ccccc1)C(=O)N[C@@H](Cc1ccccc1)C(=O)N[C@@H](Cc1ccccc1)C(=O)N[C@@H](CCCCN)C(=O)N[C@@H](CCCCN)C(=O)NCC(=O)N[C@@H](Cc1ccc(O)cc1)C(=O)N[C@@H](CCC(=O)O)C(=O)N[C@@H](CCCCN)C(=O)N[C@@H](C)C(=O)N[C@@H](CC(N)=O)C(=O)NCC(=O)NCC(=O)N[C@@H](Cc1ccccc1)C(=O)N[C@H](C(=O)N[C@@H](CCCCN)C(=O)N[C@@H](CCCCN)C(=O)N[C@@H](CCCCN)C(=O)NCC(=O)O)C(C)C)C(C)C,"broth microdilution, agar subculture","ATCC 9721, CaMHB",,,MBC,> 1020 µM
Nc1nc2ccc(S(=O)(=O)c3cccnc3)cc2s1,"swarming area, modified FAB agar",PA14-lux,"200 µM, 24 h",relative to: DMSO vehicle,inhibition,-27.5%
CN[C@H](CC(C)C)C(=O)N[C@H]1C(=O)N[C@@H](CC(N)=O)C(=O)N[C@H]2C(=O)N[C@H]3C(=O)N[C@H](C(=O)N[C@H](C(=O)O)c4cc(O)cc(O)c4-c4cc3ccc4O)[C@H](O)c3ccc(c(Cl)c3)Oc3cc2cc(c3O[C@@H]2O[C@H](CO)[C@@H](O)[C@H](O)[C@H]2O[C@H]2C[C@](C)(NCc3ccc(OCc4cn(CCCCC(=O)N[C@H](C(=O)N[C@@H](CCN)C(=O)N[C@H]5CCNC(=O)[C@H]([C@@H](C)O)NC(=O)[C@H](CCN)NC(=O)[C@H](CCN)NC(=O)[C@H](CC(C)C)NC(=O)[C@@H](CC(C)C)NC(=O)[C@H](CCN)NC5=O)[C@@H](C)O)nn4)c(OC)c3)[C@H](O)[C@H](C)O2)Oc2ccc(cc2Cl)[C@H]1O,broth microdilution,"ATCC 17978, cation-adjusted Mueller-Hinton broth",,,MIC,12 µM
Nc1nc2ccc(Oc3ccncc3)cc2s1,swarming area,PA14-lux,"200 µM, 24 h",relative to: DMSO,swarming inhibition,39.6%
